{"data": "Literature values as cited in several papers", "note": "Each numbered part shows a few of the values that one paper quotes."}
{"data": "Series 1", "organism": "Cryptosporidium parvum", "method": "high-throughput screen", "tested at": "concentration not given"}
{"Compound": "COc1ccc(-c2cc(=O)c3c(OC)c(OC)c(OC)c(OC)c3o2)cc1OC", "activity": "inactive"}
{"Compound": "Fc1ccc([C@@H]2CCNC[C@H]2COc2ccc3c(c2)OCO3)cc1.O=C(O)/C=C\\C(=O)O", "activity": "inactive"}
{"Compound": "CN(C)CCC[C@@]1(c2ccc(F)cc2)OCc2cc(C#N)ccc21", "activity": "inactive"}
{"data": "Single results of other studies"}
{"Structure (SMILES)": "O=C(Cc1ccccc1)Nc1nnc(N2CC[C@@H]3[C@H]2CN3c2cccnn2)s1", "target or system": "GLS", "assay": "biochemical", "measurement": "IC50", "result": "> 30 µM"}
{"Structure (SMILES)": "COc1cc(O)c2c(c1O)-c1nccc(C)c1C2=O", "target or system": "Plasmodium falciparum", "test system": "3D7", "measurement": "IC50", "result": "9.9 µM"}
{"Structure (SMILES)": "Cc1cc(-n2nc(Cc3cc(F)cc(C(F)(F)F)c3)nc2C)ccc1C(N)=O", "target or system": "GPR52 human", "assay": "cellular activity", "measurement": "EC50", "result": "0.093 µM"}
{"Structure (SMILES)": "Nc1nc(=O)n([C@H]2C[C@H](O)[C@@H](CO)O2)cc1I", "target or system": "cytidine deaminase (human)", "assay": "substrate", "setting": "concentration not given, 37 °C", "measurement": "Vmax", "result": "91.1 U/mg"}
{"Structure (SMILES)": "O=C(Nc1nc2ccccc2s1)c1cccc2c1CN(c1nc(C(=O)O)c(CCOc3ccc(-n4ncc5cncnc54)cc3)s1)CC2", "target or system": "BCL2L1", "assay": "biochemical", "measurement": "IC50", "result": "0.27 µM"}
{"Structure (SMILES)": "Cc1cn([C@@H]2O[C@H](CO)[C@@H](O)[C@H]2O)c(=O)[nH]c1=O", "target or system": "cytidine deaminase (human)", "assay": "competitive inhibitor", "setting": "concentration not given", "measurement": "Ki", "result": "440 µM"}
{"Structure (SMILES)": "Cn1cncc1[C@@](O)(COc1ccc(C#N)cc1-c1ccc(OC(F)(F)F)cc1)c1ccc(C#N)cc1", "target or system": "FNTB", "assay": "biochemical activity", "measurement": "IC50", "result": "> 0.1 µM"}
